Assay results of several laboratories.
Every numbered part comes from another study and shows a few of its results, in no order.

Set 1
Target: Histone acetyltransferase KAT6A, winged helix 2, GST fusion (KAT6A, Homo sapiens, UniProt Q92794, residues 85-181)
Technique: protein binding microarray
Molecule type: double-stranded DNA, one strand shown
Matrix: in vitro
Concentration: not given
Notes: 8-mer, flanks averaged, mean of 2 arrays, mostly near background
Relative to: not given
Reading: higher = stronger binding
Target sequence (chain): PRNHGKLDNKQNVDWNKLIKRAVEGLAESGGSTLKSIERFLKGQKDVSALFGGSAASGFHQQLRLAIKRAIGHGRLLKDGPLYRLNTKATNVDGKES
`ATGCACGG` has an E-score of 0.0907.
`TAGACCTA` gave an E-score of -0.114.
`CTGTGTTC` has an E-score of -0.0537.
`ATCCTGGC` has an E-score of -0.0118.
`CTCCCAAC` gave an E-score of 0.0246.
With `CTATGCTC` the E-score was -0.0559.
With `ACCCGATG` the E-score was 0.0934.
With `AGTTCGGA` the E-score was -0.0101.
The E-score of `GACGAACA` is reported as 0.0245.
For `ACATCAAG`, the E-score was -0.0865.
With `AAACTCAC` the E-score was 0.0394.
`TATAACGA` has an E-score of -0.0123.
The E-score of `ACTCCAAT` is reported as -0.0688.
For `GTTCTTAA`, the E-score was 0.119.
`CTAATTTA` gave an E-score of 0.0589.
With `AAAGTTGC` the E-score was -0.0243.
`CAATCTGG` gave an E-score of 0.106.
The E-score of `CGTTACGA` is reported as 0.0804.
The E-score of `ATAGTCTG` is reported as 0.0498.
The E-score of `CTAGAGGA` is reported as -0.0669.
The E-score of `AGATGTGA` is reported as 0.095.
`CAGACGGG` has an E-score of 0.0936.
`CCGCGGTC` gave an E-score of 0.215.
The E-score of `TTGATAAA` is reported as 0.284.
With `ATAATGAG` the E-score was -0.143.

Set 2
Target: Sal-like protein 4, full length isoform B (SALL4, Homo sapiens, UniProt Q9UJQ4-2, residues 1-616)
Technique: universal PBM
Molecule type: double-stranded DNA, one strand shown
Matrix: in vitro
Concentration: not given
Notes: 8-mer, flanks averaged, mean of replicates
Reading: higher = stronger binding
`CTATCTAC` gave an E-score of 0.0649.
`CTCACCGA` gave an E-score of -0.106.
`TCAGCTGA` gave an E-score of 0.0579.
`ACGACGCT` has an E-score of -0.108.
With `GGGTCGGA` the E-score was -0.222.
The E-score of `AGAATTCC` is reported as -0.0258.
For `AAAATCAT`, the E-score was 0.373.
For `GGGTGCGA`, the E-score was -0.195.
The E-score of `CTGGGCGA` is reported as -0.24.
The E-score of `GAGAATAC` is reported as 0.103.
`AGACCTGC` gave an E-score of -0.0846.
`CCAATCAG` has an E-score of -0.267.
`AAATCCGT` gave an E-score of 0.0505.
`AGGAGCGA` gave an E-score of -0.0873.
The E-score of `TACGGACA` is reported as 0.0769.
For `CATACCTC`, the E-score was 0.114.
The E-score of `GCCGTAAC` is reported as -0.00861.
For `GCCGCCGA`, the E-score was -0.284.
With `AACAGTCG` the E-score was -0.1.
`AAGCGAAC` gave an E-score of -0.128.
`CCTGACAC` gave an E-score of -0.19.
With `AATGCTCC` the E-score was -0.194.
For `GGTCCGCA`, the E-score was -0.297.
The E-score of `CACAAAGC` is reported as -0.07.
`CCTCATCA` gave an E-score of 0.0543.

Set 3
Target: Interferon regulatory factor 7, full length, phosphomimetic (IRF7, Homo sapiens, UniProt Q92985, residues 1-503, S101K/S471D/S472D/S475D/S476D/S477D/S483D/S484D/S487D)
Technique: protein-binding microarray
Molecule type: double-stranded DNA, one strand shown
Matrix: in vitro
Concentration: 250 nM
Notes: 60-bp whole probe
Together with: salmon DNA 0.4 mg/ml
Relative to: random background probes
Reading: higher = stronger binding
Shared flanks, not repeated: GCCTAGCAC … GTCTTGATTCGCTTGACGCTGCTG
Construct (chain): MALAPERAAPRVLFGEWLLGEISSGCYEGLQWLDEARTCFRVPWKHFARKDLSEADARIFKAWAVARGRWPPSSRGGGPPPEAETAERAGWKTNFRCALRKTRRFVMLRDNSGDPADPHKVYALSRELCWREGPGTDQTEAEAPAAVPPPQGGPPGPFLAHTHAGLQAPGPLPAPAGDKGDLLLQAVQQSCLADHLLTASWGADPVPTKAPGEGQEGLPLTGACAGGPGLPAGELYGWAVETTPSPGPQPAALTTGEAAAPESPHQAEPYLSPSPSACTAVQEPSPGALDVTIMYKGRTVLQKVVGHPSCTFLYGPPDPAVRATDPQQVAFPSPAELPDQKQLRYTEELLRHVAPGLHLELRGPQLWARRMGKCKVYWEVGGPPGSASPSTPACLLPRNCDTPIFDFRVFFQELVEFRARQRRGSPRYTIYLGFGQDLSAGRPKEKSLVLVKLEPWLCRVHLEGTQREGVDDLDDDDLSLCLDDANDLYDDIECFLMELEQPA
The log fluorescence of `TCATGTGTCAGGTTTACTACTGTGCTA` is reported as -0.26 z-score.
`CTACTTCTGTTTTTGCTTTCGTGCTAG` gave a log fluorescence of 2.62 z-score.
With `TTAGGACAGCTTATCCTTTAGTGCTAG` the log fluorescence was -0.116 z-score.
The log fluorescence of `TTAGAACTGGGAACTGGATTAGTGCTA` is reported as -0.0652 z-score.
The log fluorescence of `TTAGGTATCGACTATCTGTTAGTGCTA` is reported as 0.19 z-score.
`TCATGAATGCCCTCTAACACTGTGCTA` has a log fluorescence of -0.191 z-score.
The log fluorescence of `GACGATTTCAGACTTGAGACGTGCTAG` is reported as 0.204 z-score.
`TCAACTTTGGTTTGTACACTGTGCTAG` has a log fluorescence of -0.37 z-score.
With `TCAGTTCCCTATTTAAGACTGTGCTAG` the log fluorescence was 4.7 z-score.
The log fluorescence of `TAGAACTTCTCCACTGAATGAGTGCTA` is reported as -0.14 z-score.
With `GACGGTCTCGACTTTCGGGACGTGCTA` the log fluorescence was 2.32 z-score.
For `TCAATTTTCATTTTGTGACTGTGCTAG`, the log fluorescence was 2.54 z-score.
For `TTAGATTTCAGACTGGATGAGTGCTAG`, the log fluorescence was -0.014 z-score.
With `GACGGTTTCGCGTATCGGGACGTGCTA` the log fluorescence was 3.74 z-score.
With `TTAGGTATCGGGATTCGGTTAGTGCTA` the log fluorescence was 2.31 z-score.
With `TTAGGTCTGGACACTGGGTTAGTGCTA` the log fluorescence was -0.654 z-score.
The log fluorescence of `GACGAACAGGGGACTGGAGACGTGCTA` is reported as -0.754 z-score.
`GACGCACTGCTTTTCCTGACGTGCTAG` has a log fluorescence of 0.25 z-score.
The log fluorescence of `TTAGATTTCAGTTTCGATGAGTGCTAG` is reported as 3.18 z-score.
`ACAGCAAGCAGGGCCAGCCCGTGCTAG` gave a log fluorescence of -1.2 z-score.
With `TCAAATATCTTTGTTGAACTGTGCTAG` the log fluorescence was 0.109 z-score.
`GACTATCTCAGTTTCGAGACGTGCTAG` gave a log fluorescence of 4.26 z-score.
`GACGGTTTCCCTTCCCTGACGTGCTAG` has a log fluorescence of 3.5 z-score.
The log fluorescence of `CTCTGTTTATGTCTGGGTATGTGCTAG` is reported as 0.997 z-score.
For `TCATTTCTCTGGTTCTTACTGTGCTAG`, the log fluorescence was 2.57 z-score.

Set 4
Target: Phosphate system positive regulatory protein PHO4, full length, GST-tagged (PHO4, Saccharomyces cerevisiae, UniProt P07270, residues 1-312)
Technique: competition protein-binding microarray
Molecule type: double-stranded DNA, one strand shown
Matrix: in vitro
Concentration: 2 µM
Notes: whole 60-bp probe, lowest competitor level
Together with: Cbf1 competitor, 0.05 µM
Reading: higher = stronger binding
Target sequence (chain): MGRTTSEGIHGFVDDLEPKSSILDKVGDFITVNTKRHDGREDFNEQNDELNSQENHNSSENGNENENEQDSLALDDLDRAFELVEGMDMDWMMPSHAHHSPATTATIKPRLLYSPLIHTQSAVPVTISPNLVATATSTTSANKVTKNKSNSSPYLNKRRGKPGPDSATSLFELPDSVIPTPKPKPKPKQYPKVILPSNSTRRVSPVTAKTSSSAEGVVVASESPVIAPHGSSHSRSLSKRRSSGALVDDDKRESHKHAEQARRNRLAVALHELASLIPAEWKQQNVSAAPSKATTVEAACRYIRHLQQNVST
For `GTCTTGTCTCATTGTTGCGTGGGTGTCCCCACTTCAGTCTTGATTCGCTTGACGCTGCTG`, the fluorescence intensity was 7340 a.u.
`CTTTCCCGATCTTGTTTCGTGGGTGTAGCACATTTGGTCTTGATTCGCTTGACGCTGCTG` gave a fluorescence intensity of 5260 a.u.
`ATAACCGAAATGGGACACGTGCTGAAGCGGGGCAGAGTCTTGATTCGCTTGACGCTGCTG` gave a fluorescence intensity of 17700 a.u.
With `AGAGGAGATCCCTGGCACGCTCACTGCGCCTTTCAAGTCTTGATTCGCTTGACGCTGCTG` the fluorescence intensity was 7510 a.u.
`ATATCCACAGTATATGGCGTGCAAAGATAAGGCTCGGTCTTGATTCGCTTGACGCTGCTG` gave a fluorescence intensity of 6430 a.u.
`TATTTTTAGATATCTCACGTTTATACACATTGCCCAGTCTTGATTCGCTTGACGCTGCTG` has a fluorescence intensity of 10300 a.u.
For `TGCGCAACAACTTGTCACGGCACTTTATGTCTAGAAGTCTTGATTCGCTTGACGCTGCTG`, the fluorescence intensity was 4190 a.u.
`CTTCTGTAAATTTTTCACGTGTATTGACGCGCCCCGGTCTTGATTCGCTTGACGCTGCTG` gave a fluorescence intensity of 12100 a.u.
`ACATCTGTCTGGTTTGACGTGACAAATACCTTTCTTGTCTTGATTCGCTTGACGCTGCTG` has a fluorescence intensity of 4090 a.u.
`GTCTTGTCTCATTTTCACGTGACATTCCCCACTTCAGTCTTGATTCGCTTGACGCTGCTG` has a fluorescence intensity of 11600 a.u.
`GTCTTGTCTCATTTTCACGTGCCCTTCCCCACTTCAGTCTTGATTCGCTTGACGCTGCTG` gave a fluorescence intensity of 15800 a.u.
The fluorescence intensity of `GTCTTGTCTCATTTTCACGTGCGATTCCCCACTTCAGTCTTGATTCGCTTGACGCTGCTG` is reported as 12200 a.u.
With `TGCGCAACAACTTGCTGTGTGGGTGTATGTCTAGAAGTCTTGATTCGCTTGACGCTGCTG` the fluorescence intensity was 5640 a.u.
The fluorescence intensity of `CAATGGGTAAGCAGAGGCGTGCGATCCCTGTGTGGTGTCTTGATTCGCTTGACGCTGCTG` is reported as 10500 a.u.
`CCCTGATTAACTCACCACGTGCTTTCAAGGTCGTTAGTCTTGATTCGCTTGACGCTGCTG` has a fluorescence intensity of 18000 a.u.
For `GCGCTTGTCGCTCGGCACGATGCCAGTGCGGAGTTTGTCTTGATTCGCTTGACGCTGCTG`, the fluorescence intensity was 9230 a.u.
For `TCGTATACTTTATGTCTCGTGGGTATAAAAAGCCAAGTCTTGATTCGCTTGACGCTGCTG`, the fluorescence intensity was 8790 a.u.
For `CCACATAAACATTCACACGTGGAACATGTACCAAAAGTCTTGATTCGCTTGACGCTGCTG`, the fluorescence intensity was 17400 a.u.
`AAAGCGGTAATTTGAACCGTGGGTGCAGATATCTATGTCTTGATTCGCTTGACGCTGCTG` has a fluorescence intensity of 7250 a.u.
`CATACCCAACCTTGTCACGTGACTTAAGATATTTGTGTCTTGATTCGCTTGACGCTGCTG` has a fluorescence intensity of 13700 a.u.
`GCCAAGCAGCGTCCGCACGTTGGAACTTTTTCGCCGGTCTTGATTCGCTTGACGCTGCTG` gave a fluorescence intensity of 10900 a.u.
For `CGCTACCAGAAACGATGCGTGCAAAGACCAGTGTTTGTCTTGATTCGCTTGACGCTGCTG`, the fluorescence intensity was 8480 a.u.
For `GTTGAAACTGTCAACATCGTGTAGGACATTGGATAAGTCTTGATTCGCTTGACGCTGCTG`, the fluorescence intensity was 9100 a.u.
`CGAGATTCATACAATGGCGTGCAAACAAAATGATTAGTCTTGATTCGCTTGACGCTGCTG` gave a fluorescence intensity of 6900 a.u.

Repeated from above (set 3):
With `TTAGGTATCGGGATTCGGTTAGTGCTA` the log fluorescence was 2.31 z-score.
With `TTAGGTCTGGACACTGGGTTAGTGCTA` the log fluorescence was -0.654 z-score.
The log fluorescence of `GACGAACAGGGGACTGGAGACGTGCTA` is reported as -0.754 z-score.
`GACGCACTGCTTTTCCTGACGTGCTAG` has a log fluorescence of 0.25 z-score.
The log fluorescence of `TTAGATTTCAGTTTCGATGAGTGCTAG` is reported as 3.18 z-score.
`ACAGCAAGCAGGGCCAGCCCGTGCTAG` gave a log fluorescence of -1.2 z-score.
